Experimental data pooled from the literature.
Parts stem from different laboratories: compare values within a part only. Values joined by “and” are separate records of one study, mostly repeats; a detail may differ.
UniProt O75716, sequence (whole entry, looked up): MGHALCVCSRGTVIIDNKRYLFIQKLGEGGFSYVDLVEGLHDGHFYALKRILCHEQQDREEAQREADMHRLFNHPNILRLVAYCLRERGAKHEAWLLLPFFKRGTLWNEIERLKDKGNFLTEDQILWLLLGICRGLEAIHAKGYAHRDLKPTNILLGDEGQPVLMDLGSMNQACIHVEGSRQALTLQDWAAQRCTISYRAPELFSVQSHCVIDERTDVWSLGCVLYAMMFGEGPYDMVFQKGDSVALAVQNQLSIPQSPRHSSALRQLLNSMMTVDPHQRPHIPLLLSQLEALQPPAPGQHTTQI
UniProt P34969, sequence (whole entry, looked up): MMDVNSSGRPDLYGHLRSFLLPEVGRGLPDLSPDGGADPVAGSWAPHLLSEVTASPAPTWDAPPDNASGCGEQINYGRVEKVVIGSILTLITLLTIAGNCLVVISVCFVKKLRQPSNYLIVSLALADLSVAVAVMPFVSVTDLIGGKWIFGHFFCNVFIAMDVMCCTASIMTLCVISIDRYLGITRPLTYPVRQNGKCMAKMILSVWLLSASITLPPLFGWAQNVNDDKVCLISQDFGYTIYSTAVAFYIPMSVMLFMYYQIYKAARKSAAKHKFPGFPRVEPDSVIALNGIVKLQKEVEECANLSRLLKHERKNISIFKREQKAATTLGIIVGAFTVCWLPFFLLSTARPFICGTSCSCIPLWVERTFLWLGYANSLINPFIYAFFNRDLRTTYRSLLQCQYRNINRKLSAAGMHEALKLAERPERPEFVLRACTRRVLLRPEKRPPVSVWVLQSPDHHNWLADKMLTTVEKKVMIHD
UniProt P35367, sequence (whole entry, looked up): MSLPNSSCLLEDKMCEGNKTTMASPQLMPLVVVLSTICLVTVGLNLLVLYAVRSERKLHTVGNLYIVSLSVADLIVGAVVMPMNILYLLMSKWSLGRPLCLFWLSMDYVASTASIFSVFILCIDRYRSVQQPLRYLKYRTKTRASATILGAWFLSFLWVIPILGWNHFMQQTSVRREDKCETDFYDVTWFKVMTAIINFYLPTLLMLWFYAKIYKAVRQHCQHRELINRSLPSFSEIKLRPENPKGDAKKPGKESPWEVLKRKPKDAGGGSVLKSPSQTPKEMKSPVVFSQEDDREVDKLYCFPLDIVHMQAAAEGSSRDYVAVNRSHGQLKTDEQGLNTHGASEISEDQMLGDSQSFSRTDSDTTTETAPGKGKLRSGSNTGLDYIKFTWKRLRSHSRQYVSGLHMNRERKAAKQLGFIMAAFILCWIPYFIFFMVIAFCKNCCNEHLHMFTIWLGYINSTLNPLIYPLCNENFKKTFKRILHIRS
UniProt Q9H3N8, sequence (whole entry, looked up): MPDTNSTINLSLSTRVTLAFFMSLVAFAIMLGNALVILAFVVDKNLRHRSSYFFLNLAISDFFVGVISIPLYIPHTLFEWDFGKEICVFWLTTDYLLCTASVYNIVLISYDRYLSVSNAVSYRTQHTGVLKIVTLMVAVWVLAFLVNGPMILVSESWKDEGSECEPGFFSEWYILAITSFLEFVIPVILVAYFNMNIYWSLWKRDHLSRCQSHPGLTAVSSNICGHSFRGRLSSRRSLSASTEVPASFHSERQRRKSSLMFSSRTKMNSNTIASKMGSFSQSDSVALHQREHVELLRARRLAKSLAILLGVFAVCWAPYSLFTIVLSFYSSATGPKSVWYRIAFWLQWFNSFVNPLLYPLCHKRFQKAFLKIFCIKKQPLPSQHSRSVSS
UniProt P21728, sequence (whole entry, looked up): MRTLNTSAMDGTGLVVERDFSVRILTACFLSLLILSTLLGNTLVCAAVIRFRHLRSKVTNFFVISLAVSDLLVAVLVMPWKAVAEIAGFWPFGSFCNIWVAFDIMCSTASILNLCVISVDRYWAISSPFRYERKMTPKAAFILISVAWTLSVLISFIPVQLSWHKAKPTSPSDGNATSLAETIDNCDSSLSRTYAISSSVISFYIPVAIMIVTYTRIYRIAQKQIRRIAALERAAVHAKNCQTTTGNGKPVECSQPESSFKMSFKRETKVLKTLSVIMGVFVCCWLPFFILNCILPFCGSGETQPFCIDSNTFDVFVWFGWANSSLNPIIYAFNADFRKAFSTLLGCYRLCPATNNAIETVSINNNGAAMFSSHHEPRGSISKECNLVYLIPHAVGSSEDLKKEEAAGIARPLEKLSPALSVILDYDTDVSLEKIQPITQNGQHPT
UniProt P46098, sequence (whole entry, looked up): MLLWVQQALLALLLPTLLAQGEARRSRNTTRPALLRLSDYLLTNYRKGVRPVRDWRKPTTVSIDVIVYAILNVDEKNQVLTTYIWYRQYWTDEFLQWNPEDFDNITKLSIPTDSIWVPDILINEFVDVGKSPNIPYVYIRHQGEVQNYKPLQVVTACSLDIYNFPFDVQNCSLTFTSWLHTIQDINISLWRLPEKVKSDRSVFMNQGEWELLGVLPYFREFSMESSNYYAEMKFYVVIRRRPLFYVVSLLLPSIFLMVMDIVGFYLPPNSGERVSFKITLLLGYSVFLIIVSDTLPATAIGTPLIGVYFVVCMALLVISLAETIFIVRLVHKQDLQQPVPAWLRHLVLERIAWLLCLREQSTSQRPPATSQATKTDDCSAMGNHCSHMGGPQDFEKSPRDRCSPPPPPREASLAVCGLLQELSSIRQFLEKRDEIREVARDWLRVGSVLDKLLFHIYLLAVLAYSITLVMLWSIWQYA
UniProt P25021, sequence (whole entry, looked up): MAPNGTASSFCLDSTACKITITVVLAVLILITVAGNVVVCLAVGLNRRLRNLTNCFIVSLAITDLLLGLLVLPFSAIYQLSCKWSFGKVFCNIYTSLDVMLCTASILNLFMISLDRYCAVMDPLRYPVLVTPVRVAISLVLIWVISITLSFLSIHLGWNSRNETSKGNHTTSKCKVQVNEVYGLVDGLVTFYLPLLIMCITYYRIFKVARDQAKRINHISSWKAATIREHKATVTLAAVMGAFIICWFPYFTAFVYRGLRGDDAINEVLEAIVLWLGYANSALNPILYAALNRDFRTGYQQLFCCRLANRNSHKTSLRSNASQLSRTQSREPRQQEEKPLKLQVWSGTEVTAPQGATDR
UniProt P18089, sequence (whole entry, looked up): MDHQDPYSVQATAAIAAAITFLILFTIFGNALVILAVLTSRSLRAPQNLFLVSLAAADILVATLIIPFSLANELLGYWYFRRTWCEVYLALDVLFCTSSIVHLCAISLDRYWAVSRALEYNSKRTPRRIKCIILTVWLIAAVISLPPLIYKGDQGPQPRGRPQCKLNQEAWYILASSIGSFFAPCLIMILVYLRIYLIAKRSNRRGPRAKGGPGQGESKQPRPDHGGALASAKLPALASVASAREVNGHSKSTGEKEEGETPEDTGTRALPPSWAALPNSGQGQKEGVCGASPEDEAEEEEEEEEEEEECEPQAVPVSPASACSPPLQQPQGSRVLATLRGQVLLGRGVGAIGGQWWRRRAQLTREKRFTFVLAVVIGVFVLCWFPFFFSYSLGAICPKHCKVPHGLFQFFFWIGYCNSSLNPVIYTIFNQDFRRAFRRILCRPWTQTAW
UniProt P08173, sequence (whole entry, looked up): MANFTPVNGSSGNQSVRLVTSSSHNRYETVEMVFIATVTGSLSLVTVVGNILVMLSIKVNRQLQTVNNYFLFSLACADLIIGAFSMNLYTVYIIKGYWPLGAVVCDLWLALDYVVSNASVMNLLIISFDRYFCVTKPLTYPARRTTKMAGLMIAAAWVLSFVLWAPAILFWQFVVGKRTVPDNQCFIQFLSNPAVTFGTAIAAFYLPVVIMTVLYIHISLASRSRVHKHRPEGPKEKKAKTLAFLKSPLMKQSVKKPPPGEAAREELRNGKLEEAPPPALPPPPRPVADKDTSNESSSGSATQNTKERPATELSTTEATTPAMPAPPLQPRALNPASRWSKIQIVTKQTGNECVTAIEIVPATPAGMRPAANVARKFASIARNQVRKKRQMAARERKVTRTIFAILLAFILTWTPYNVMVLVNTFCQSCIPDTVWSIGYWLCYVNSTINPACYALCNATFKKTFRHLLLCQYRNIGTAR
UniProt P25100, sequence (whole entry, looked up): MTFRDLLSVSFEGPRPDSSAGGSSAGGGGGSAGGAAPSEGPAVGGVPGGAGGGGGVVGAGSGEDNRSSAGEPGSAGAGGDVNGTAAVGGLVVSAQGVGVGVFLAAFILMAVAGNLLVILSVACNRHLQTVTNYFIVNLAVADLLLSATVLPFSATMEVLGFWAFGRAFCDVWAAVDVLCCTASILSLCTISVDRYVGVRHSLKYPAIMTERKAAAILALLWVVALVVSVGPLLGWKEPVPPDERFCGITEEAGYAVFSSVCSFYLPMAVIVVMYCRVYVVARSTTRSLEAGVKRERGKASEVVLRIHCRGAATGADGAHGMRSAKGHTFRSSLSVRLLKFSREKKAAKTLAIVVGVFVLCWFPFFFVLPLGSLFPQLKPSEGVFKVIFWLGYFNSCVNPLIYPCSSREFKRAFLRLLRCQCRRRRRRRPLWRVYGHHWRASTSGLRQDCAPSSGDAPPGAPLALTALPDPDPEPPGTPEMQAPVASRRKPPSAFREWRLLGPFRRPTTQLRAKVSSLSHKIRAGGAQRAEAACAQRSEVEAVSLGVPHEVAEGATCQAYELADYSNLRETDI
UniProt P18825, sequence (whole entry, looked up): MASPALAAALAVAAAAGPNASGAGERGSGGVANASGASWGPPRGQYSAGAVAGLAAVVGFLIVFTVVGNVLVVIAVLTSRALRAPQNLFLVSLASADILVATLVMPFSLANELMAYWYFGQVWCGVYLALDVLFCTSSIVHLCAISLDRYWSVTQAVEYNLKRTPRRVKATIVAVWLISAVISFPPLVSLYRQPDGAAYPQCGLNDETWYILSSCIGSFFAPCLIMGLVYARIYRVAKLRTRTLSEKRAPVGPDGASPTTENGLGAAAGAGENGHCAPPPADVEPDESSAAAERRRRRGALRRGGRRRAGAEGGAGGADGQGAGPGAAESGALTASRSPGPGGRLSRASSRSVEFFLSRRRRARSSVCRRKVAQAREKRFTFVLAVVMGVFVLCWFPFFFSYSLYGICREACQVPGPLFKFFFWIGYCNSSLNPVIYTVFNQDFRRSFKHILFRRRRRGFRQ

Sample 1
SMILES: C=CC(=O)N1CCC([C@@H]2CCNc3c(C(N)=O)c(-c4ccc(Oc5ccccc5)cc4)nn32)CC1
Concentration: 1 µM
Measurement: inhibition
Serine/threonine-protein kinase 16 (STK16, Homo sapiens, UniProt O75716); enzyme activity, inhibitor: 9%
Tyrosine-protein kinase ABL1, non-phosphorylated (ABL1, Homo sapiens, UniProt P00519, Q252H); enzyme activity, inhibitor: 44%
Hepatocyte growth factor receptor (MET, Homo sapiens, UniProt P08581, M1250T); cell-free assay: 11%
Homeodomain-interacting protein kinase 4 (HIPK4, Homo sapiens, UniProt Q8NE63); enzyme activity, inhibitor: 2%

Sample 2
Structure (SMILES): CCC(=O)N1CCN(c2nc(OC[C@@H]3CCCN3C)nc3c2CCN(c2cccc4cccc(Cl)c24)C3)C[C@@H]1CC#N
Read-out: binding
Action: competitor
Method: NanoBRET
Cells: HEK293
Measurement: normalized BRET
KRAS Q61L: GTPase KRas (KRAS, Homo sapiens, UniProt P01116, Q61L)
GTPase KRas (KRAS, Homo sapiens, UniProt P01116, G13D); 15.2 nM: 93.9% and 94.6% and 109%
GTPase KRas (KRAS, Homo sapiens, UniProt P01116, G12D); 3.7 µM: 95.5% and 102% and 90.3%
KRAS Q61L; 412 nM: 81.3% and 88% and 87.3%
KRAS Q61L; 1.24 µM: 63% and 58.9% and 60.1%

Sample 3
SMILES: CO[C@@H](C)c1c(Nc2ccc([C@@H](N(C)C(=O)C3CCS(=O)(=O)CC3)C(F)(F)F)cc2)cnc2cc(Cl)nn12
Read-out: binding
Method: radioligand binding
Concentration: 10 µM
Measurement: inhibition
Alpha-1B adrenergic receptor (ADRA1B, Homo sapiens, UniProt P35368): 5.97%
Histamine H2 receptor (HRH2, Homo sapiens, UniProt P25021): 5.46%
Histamine H1 receptor (HRH1, Homo sapiens, UniProt P35367): -9.88%
Histamine H4 receptor (HRH4, Homo sapiens, UniProt Q9H3N8): -8.46%
Alpha-2B adrenergic receptor (ADRA2B, Homo sapiens, UniProt P18089): 1.55%
Alpha-2C adrenergic receptor (ADRA2C, Homo sapiens, UniProt P18825): 1.97%
D(1A) dopamine receptor (DRD1, Homo sapiens, UniProt P21728): 17.9%
Alpha-1D adrenergic receptor (ADRA1D, Homo sapiens, UniProt P25100): 3.2%
5-hydroxytryptamine receptor 7 (HTR7, Homo sapiens, UniProt P34969): -27.8%
Beta-3 adrenergic receptor (ADRB3, Homo sapiens, UniProt P13945): 12.9%
Muscarinic acetylcholine receptor M4 (CHRM4, Homo sapiens, UniProt P08173): 21.1%
Muscarinic acetylcholine receptor M2 (CHRM2, Homo sapiens, UniProt P08172): -10.5%
5-hydroxytryptamine receptor 3A (HTR3A, Homo sapiens, UniProt P46098): -1.2%

Sample 4
Cell line: mouse MPNST tumor cells
Method: high-content immunofluorescence imaging
Item: nuclear SOX9
Concentration: 10 µM
Time: 12 h
Setting: mean of 2 replicates
Baseline: DMSO control
Direction: higher = more nuclear SOX9
Measurement: nuclear SOX9 intensity
Cc1ccc(S(=O)(=O)N2CCCC2c2ccc(F)cc2)cc1 (centres unmarked): 113 % of DMSO
CCOc1nc2cccc(C(=O)O)c2n1Cc1ccc(-c2ccccc2-c2nnn[nH]2)cc1: 99 % of DMSO and 92.9 % of DMSO
COc1cc(-c2cn(C)c(=O)c3cnccc23)c(OC)cc1CN(C)C: 106 % of DMSO and 107 % of DMSO
O=C(c1ccc(OCCN2CCCCC2)cc1)c1c(-c2ccc(O)cc2)sc2cc(O)ccc12: 221 % of DMSO and 211 % of DMSO

Sample 5
Structure (SMILES): CC(C)n1cnc(-c2ccc(F)cc2)c1-c1ncc(C(=O)Nc2ccc(N3CCN(C)CC3)cc2)[nH]1
Method: phase 2a trial
Species: idiopathic pulmonary fibrosis patients
Measurement: patients with abdominal distension
60 mg once daily, adverse event grade 4: 0%
dose not given, adverse event grade 4, all dose arms pooled: 0%
60 mg once daily, adverse event grade 2: 0%
30 mg once daily, adverse event grade 2: 0%

A few entries again (sample 2):
GTPase KRas (KRAS, Homo sapiens, UniProt P01116, G12D); 3.7 µM: 95.5% and 102% and 90.3%
GTPase KRas (KRAS, Homo sapiens, UniProt P01116, G13D); 15.2 nM: 93.9% and 94.6% and 109%
KRAS Q61L; 1.24 µM: 63% and 58.9% and 60.1%
KRAS Q61L; 412 nM: 81.3% and 88% and 87.3%
